Results gathered from unrelated publications.
A part holds a random share of what one study measured.

Series 1
Target: Replicase polyprotein 1ab, main protease (rep, Severe acute respiratory syndrome coronavirus 2, UniProt P0DTD1)
Read-out: enzyme activity
Mode: inhibitor
Concentration: 20 µM
Compound	inhibition [%]
CCc1ccc(/C=C/C(=O)Nc2ccc(C(C)=O)cc2)o1	-30.5
CN1Cc2ccccc2[C@@H]2c3cccc4[nH]cc(c34)C[C@H]21	-3.59
CCCCCCCCCCCCCCCCCC[S+](CCC)c1ccccc1C(=O)OCC (stereo not shown)	89.9

Series 2
Target: Interferon regulatory factor 3, full length, phosphomimetic (IRF3, Homo sapiens, UniProt Q14653, residues 1-427, S386D/S396D/S398D/S402D/T404D/S405D)
Method: protein-binding microarray
Molecule type: double-stranded DNA, one strand shown
Sample: in vitro
Concentration: 2540 nM top
Notes: 60-bp whole probe
Added: salmon DNA 0.4 mg/ml
Baseline: random background probes
Reading: higher = stronger binding
Shared flanks, not repeated: GCCTAGCAC … GTCTTGATTCGCTTGACGCTGCTG
Residues (chain): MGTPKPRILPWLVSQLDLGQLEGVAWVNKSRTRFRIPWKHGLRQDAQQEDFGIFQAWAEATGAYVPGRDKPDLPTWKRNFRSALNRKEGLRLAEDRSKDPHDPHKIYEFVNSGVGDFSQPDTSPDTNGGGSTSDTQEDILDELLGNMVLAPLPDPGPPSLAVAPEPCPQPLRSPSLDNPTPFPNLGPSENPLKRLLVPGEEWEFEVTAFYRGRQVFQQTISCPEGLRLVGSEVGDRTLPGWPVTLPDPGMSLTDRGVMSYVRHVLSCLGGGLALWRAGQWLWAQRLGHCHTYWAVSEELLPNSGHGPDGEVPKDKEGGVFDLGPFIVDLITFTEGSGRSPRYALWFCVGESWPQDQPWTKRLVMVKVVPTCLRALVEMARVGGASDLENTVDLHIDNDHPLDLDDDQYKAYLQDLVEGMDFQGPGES
Sequence	fitted relative affinity
TCACCTCCAGGTTCTCTGACTGTGCTA	-0.372 z-score
AAGCCAGGACGAGCTCGCCTGTGCTAG	-1.12 z-score
GACGATTTGAGTTCCGAGACGTGCTAG	0.435 z-score
TTAGATATCAGTTTCGTTTAGTGCTAG	5.31 z-score
GACGGTCTCCTACTGCTGGCGTGCTAG	1.3 z-score
TCTAATCTCACTCTGTCCCTGTGCTAG	0.411 z-score
AACGGACTGGGTTTCGGGACGTGCTAG	1.17 z-score
TAAGGTTTCCTTTCCCTTTAGTGCTAG	10.5 z-score

Series 3
Target: Histone acetyltransferase KAT6A, winged helix 2, GST fusion (KAT6A, Homo sapiens, UniProt Q92794, residues 85-181)
Method: protein binding microarray
Molecule type: double-stranded DNA, one strand shown
Sample: in vitro
Concentration: not given
Notes: 8-mer, flanks averaged, mean of 2 arrays, mostly near background
Baseline: not given
Reading: higher = stronger binding
Construct (chain): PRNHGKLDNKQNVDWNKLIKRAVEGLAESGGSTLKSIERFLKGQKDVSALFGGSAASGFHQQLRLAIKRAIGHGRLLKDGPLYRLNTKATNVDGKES
Sequence	E-score
ACAGTACG	-0.0614
AGCCTTGG	-0.155
CCTCCGGC	0.199
ATAATACA	0.133
ATTGACTC	0.0151
ACTGCCCT	0.0176
AATTGCGC	0.0252
CGAACCAG	0.185

Series 4
Target: Replicase polyprotein 1ab, nsp13 helicase (rep, Severe acute respiratory syndrome coronavirus 2, UniProt P0DTD1)
Mode: inhibitor
Concentration: 20 µM
SMILES	inhibition
O=C1CCC(N2C(=O)c3ccccc3C2=O)C(=O)N1 (stereo not shown)	2.74%
Nc1ccn([C@H]2CO[C@@H](CO)S2)c(=O)n1	3.54%
O=C(O)c1ccccc1-c1c2cc(I)c(=O)c(I)c-2oc2c(I)c(O)c(I)cc12	18.7%
Cc1nc2ccc(NC(=O)Nc3ccnc4cccnc34)cc2o1	1.43%
C=C1/C(=C\C=C2/CCC[C@]3(C)[C@@H]([C@H](C)CCCC(C)C)CC[C@@H]23)C[C@@H](O)C[C@@H]1O	29.2%
COc1ccc(OC)c(C2C(C#N)=C(N)Oc3n[nH]c(-c4ccc5ccccc5c4)c32)c1 (stereo not shown)	-3.2%
O=C(NCc1ccc(F)cc1)N1CCN2C(=O)OC(c3ccccc3)(c3ccccc3)C2C1 (stereo not shown)	-2.08%
Cc1ccccc1C(=O)Nc1ccc(C(=O)N2CCCC(N(C)C)c3ccccc32)cc1 (stereo not shown)	6.38%
O=C(N[C@H]1CN2CCC1CC2)c1ccc2c(c1)OCCO2	3.04%
COc1cc([C@@H]2c3cc4c(cc3[C@@H](O[C@@H]3O[C@@H]5CO[C@@H](C)O[C@H]5[C@H](O)[C@H]3O)[C@H]3COC(=O)[C@H]23)OCO4)cc(OC)c1O	4.18%
O=C(O)c1ccccc1Nc1ccc(CCc2ccc(Cl)c(Cl)c2)cc1	7.76%
O=C(O)Cc1ccc(OCCNC[C@H](O)c2ccccc2)cc1	-13.1%
C=C(C)[C@@H]1CCC(C)=C[C@H]1c1c(OC)cc(C)cc1OC	4.96%
C[C@@H]1C[C@H]2[C@@H]3C[C@H](F)C4=CC(=O)C=C[C@]4(C)[C@@]3(F)[C@@H](O)C[C@]2(C)[C@@]1(O)C(=O)COC(=O)C(C)(C)C	4.99%
O=C(NC(NC(=S)Nc1ccc(F)c([N+](=O)[O-])c1)C(Cl)(Cl)Cl)C(c1ccccc1)c1ccccc1 (stereo not shown)	4.31%
CC(C)(C)C(=O)OCC(=O)[C@H]1CC[C@H]2[C@@H]3CCC4=CC(=O)CC[C@]4(C)[C@H]3CC[C@]12C	12.2%
FC(F)(F)Oc1ccc2nc(-c3ccc(OCCOCCOc4ccc(-c5nc6ccc(OC(F)(F)F)cc6[nH]5)nc4)cn3)[nH]c2c1	-1.54%
CC1=CC[C@@H](C(C)(C)O)C[C@@H]1O	0.48%
C=CCOC(Cn1ccnc1)c1ccc(Cl)cc1Cl (stereo not shown)	2.65%
CNC(=O)c1cccc(NC(=O)N2CCC(Oc3ccccc3Cl)CC2)c1	6.22%
CCN1C[C@H](C)n2c(c(O)c3c(=O)n(Cc4ccc(F)c(Cl)c4)nc(C(=O)NC)c32)C1=O	23.5%
Cc1cc2c(F)c(Oc3ncnn4cc(OC[C@@H](C)OC(=O)[C@H](C)N)c(C)c34)ccc2[nH]1	3.14%
CCCc1c(OCC(O)COc2ccc3c(=O)cc(C(=O)O)oc3c2CCC)ccc(C(C)=O)c1O (stereo not shown)	18.4%
O=C1COc2nccc(-c3ccccc3F)c2CN1Cc1cc(C(F)(F)F)cc(C(F)(F)F)c1	7.47%
COC(=O)c1ccccc1NC(=O)c1ccc(F)cc1	-3.13%

Series 5
Cell line: HEK-293T/ACE2
Read-out: pseudovirus infection
Organism: VSV pseudotyped with SARS-CoV-2 spike
Concentration: 10 µM
Time: 16 h
Baseline: vehicle-treated
Structure (SMILES)	GFP-positive cells
CN(C)CC(c1ccc(O)cc1)C1(O)CCCCC1 (stereo not shown)	66.4%
CC(=O)O[C@H]1C[C@@H]2CC[C@@H]3[C@H](CC[C@@]4(C)[C@H]3C[C@H]([N+]3(C)CCCCC3)[C@@H]4OC(C)=O)[C@@]2(C)C[C@@H]1N1CCCCC1	72.8%
Cn1c(=O)cc(N2CCC[C@@H](N)C2)n(Cc2ccccc2C#N)c1=O	90.5%

Series 6
Target: Myc proto-oncogene protein, bHLH-zipper, MAX partner unstated (MYC, Homo sapiens, UniProt P01106, residues 368-449)
UniProt P01106, sequence (368-449, looked up): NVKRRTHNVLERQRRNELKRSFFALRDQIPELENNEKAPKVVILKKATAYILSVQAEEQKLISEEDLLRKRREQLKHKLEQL
Method: protein-binding microarray
Molecule type: double-stranded DNA, one strand shown
Sample: in vitro
Concentration: not given
Notes: k-mer, scored over probes, only values ≥0.25
Reading: higher = stronger binding
Sequence	E-score
ATGTGGCG	0.379
GCATGGAC	0.403
ACGTGACG	0.306
CGCACCTC	0.262
CGCACCCC	0.32

Some of these lines once more (series 4):
SMILES	inhibition
CCCc1c(OCC(O)COc2ccc3c(=O)cc(C(=O)O)oc3c2CCC)ccc(C(C)=O)c1O (stereo not shown)	18.4%
O=C(O)c1ccccc1-c1c2cc(I)c(=O)c(I)c-2oc2c(I)c(O)c(I)cc12	18.7%
O=C(O)c1ccccc1Nc1ccc(CCc2ccc(Cl)c(Cl)c2)cc1	7.76%
